Measurements gathered from unrelated publications.
A part holds a random share of what one study measured. ± gives the spread as reported.

Set 1 — effect on: enzyme activity; mode: inhibitor; method: radiometric
Target: crk3 (Leishmania mexicana, UniProt O15851)
Compound	IC50
CC(=O)Nc1nc2ccc(-c3cccc(C)c3)cn2n1	65000 nM
CNC(=O)NC1=CC(=O)CC(C)(C)C1	> 100000 nM
O=C(Nc1nc2ccc(-c3cccc4[nH]ccc34)cn2n1)C1CCCCC1	70 nM

Other studies, line by line
GRM2: Metabotropic glutamate receptor 2 (GRM2, Homo sapiens, UniProt Q14416)
Chain of UniProt Q14416 (whole entry, looked up): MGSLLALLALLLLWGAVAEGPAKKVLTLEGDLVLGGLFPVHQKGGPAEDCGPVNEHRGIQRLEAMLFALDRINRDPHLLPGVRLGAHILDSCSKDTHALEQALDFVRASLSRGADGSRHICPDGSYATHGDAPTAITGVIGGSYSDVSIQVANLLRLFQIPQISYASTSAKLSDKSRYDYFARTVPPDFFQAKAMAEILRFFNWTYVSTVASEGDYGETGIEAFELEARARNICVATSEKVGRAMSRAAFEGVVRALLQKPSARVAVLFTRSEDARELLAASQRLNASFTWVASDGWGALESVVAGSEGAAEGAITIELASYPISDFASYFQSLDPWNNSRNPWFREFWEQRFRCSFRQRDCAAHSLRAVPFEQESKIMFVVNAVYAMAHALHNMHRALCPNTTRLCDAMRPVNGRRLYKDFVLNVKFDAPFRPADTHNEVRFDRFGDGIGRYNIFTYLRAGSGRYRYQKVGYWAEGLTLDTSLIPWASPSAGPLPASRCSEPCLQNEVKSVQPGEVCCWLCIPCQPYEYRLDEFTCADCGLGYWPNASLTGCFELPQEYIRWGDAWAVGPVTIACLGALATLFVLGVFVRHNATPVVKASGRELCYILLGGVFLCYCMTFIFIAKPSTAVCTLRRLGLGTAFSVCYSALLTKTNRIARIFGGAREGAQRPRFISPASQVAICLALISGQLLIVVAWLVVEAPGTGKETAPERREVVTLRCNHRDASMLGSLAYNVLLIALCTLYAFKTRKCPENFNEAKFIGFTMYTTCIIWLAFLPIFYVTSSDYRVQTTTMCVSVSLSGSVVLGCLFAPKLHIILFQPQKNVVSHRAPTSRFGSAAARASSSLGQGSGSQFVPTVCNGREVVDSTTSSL
SMILES	target or system	test	test system	conditions	scale	endpoint	value
Cc1ccc(C(=O)N/N=C/c2cc(Br)ccc2OCC(=O)O)cc1		refers to: latency to stage 3	male mice, pilocarpine-induced seizures	oral, 20 mg/kg, dosed 30 min before pilocarpine, added: pilocarpine 300 mg/kg i.p.	relative to: pilocarpine vehicle group	seizure latency increase	117%
CCCCn1ccn2c(-c3ccc(NC4CCOCC4)c(Cl)c3)c(C)nc2c1=O	GRM2	GTPγS binding, positive allosteric modulator		added: EC20 glutamate		EC50	72 nM
Cc1nc(C#N)cnc1Cl	Cellular tumor antigen p53, DNA-binding domain (TP53, Homo sapiens, UniProt P04637, M133L/N239Y/N268D/V203A/Y220C)	DSF		1 mM, 30 min, 20 °C		delta Tm	1.71 °C
O=C(O)COc1ccc(Br)cc1C=NNC(=O)Cc1ccccc1 (mixture of isomers)			mouse, pilocarpine-induced seizures	oral, 20 mg/kg, added: pilocarpine 300 mg/kg i.p.		latency to forelimb clonus	18.4 ± 0.41 min
FC(F)(F)c1c(-c2ccc(N3CCNCC3)c(Cl)c2)ccn2c(CC3CC3)nnc12	GRM2	GTPγS binding, positive allosteric modulator		added: EC20 glutamate		EC50	131 nM
O=C(O)COc1ccccc1/C=N/NC(=O)CNc1ccc(Cl)cc1		refers to: latency to stage 3	male mice, pilocarpine-induced seizures	oral, 20 mg/kg, dosed 30 min before pilocarpine, added: pilocarpine 300 mg/kg i.p.	relative to: pilocarpine vehicle group	seizure latency increase	95%
Cc1cc(C#N)cnc1Cl	Cellular tumor antigen p53, DNA-binding domain (TP53, Homo sapiens, UniProt P04637, M133L/N239Y/N268D/V203A)	DSF		1 mM, up to 24 h		delta Tm	no effect
O=C(O)COc1ccc(Br)cc1/C=N/NC(=O)c1ccc(Cl)cc1		Racine scale 0-5	male mice, pilocarpine-induced seizures	oral, 20 mg/kg, 1 h after pilocarpine, unit not given, added: pilocarpine 300 mg/kg i.p.	higher = more severe	seizure severity	2.4 ± 0.52
Cc1cc(Oc2ccc(-c3ccn4c(CC5CC5)nnc4c3C(F)(F)F)cc2F)ccn1	GRM2	GTPγS binding, positive allosteric modulator		added: EC20 glutamate		EC50	55 nM

Repeated from above (other studies, line by line):
SMILES	target or system	test	test system	conditions	scale	endpoint	value
CCCCn1ccn2c(-c3ccc(NC4CCOCC4)c(Cl)c3)c(C)nc2c1=O	GRM2	GTPγS binding, positive allosteric modulator		added: EC20 glutamate		EC50	72 nM
Cc1cc(Oc2ccc(-c3ccn4c(CC5CC5)nnc4c3C(F)(F)F)cc2F)ccn1	GRM2	GTPγS binding, positive allosteric modulator		added: EC20 glutamate		EC50	55 nM
